Measurements pooled from the literature.
Lines come from different studies, so protocols differ. Several values in a cell are separate wells, animals, samples, runs or records. ± gives the spread as reported.

| Molecule | assay | test system | setting | how to read | measurement | result |
| --- | --- | --- | --- | --- | --- | --- |
| CCCCCOc1ccc(-c2ccc(-c3ccc(C(=O)N[C@H]4C[C@@H](O)[C@@H](O)NC(=O)[C@@H]5[C@@H](O)[C@@H](C)CN5C(=O)[C@H]([C@@H](C)O)NC(=O)[C@H]([C@H](O)[C@@H](O)c5ccc(O)cc5)NC(=O)[C@@H]5C[C@@H](O)CN5C(=O)[C@H]([C@@H](C)O)NC4=O)cc3)cc2)cc1 | population PK model | patients aged sample B to < sample C years | intravenous, 200 mg loading, 100 mg once daily, mean, weight-corrected | – | clearance | 0.283 mL/min/kg |
| YMDGTMSQV | RP-HPLC UV | peptide, aqueous formic acid acetonitrile | 60 min, 4 °C, added: 120 mM hydrogen peroxide | – | native peptide remaining | < 10% |
| Cc1ccc(Nc2nccc(N(C)c3ccc4c(C)n(C)nc4c3)n2)cc1S(N)(=O)=O | – | patients without gastric acid suppression, plasma | oral, 800 mg once daily, 24 h, fasted, first steady state, geometric mean | – | Cmin | 28200 ng/mL |
| COc1cc(-c2nc(-c3ccccc3)c(-c3cccs3)[nH]2)cc(OC)c1OC(=O)C1=CN(C)C=CC1 | – | C57BL/6 mouse, CES1 knockout, brain homogenate | 10 µM, 1 h, 37 °C | – | remaining compound | ≥ 50% |
| [123I]c1cncc(OC[C@@H]2CCN2)c1 | SPECT | human, low plasma nicotine, cerebellum | intravenous, dose not given | baseline: plasma | tissue/plasma ratio | 19.6 |
| CC(C)C(=O)OC[C@H]1O[C@@H](n2ccc(NO)nc2=O)[C@H](O)[C@@H]1O | – | rat brain dialysate | 250 ng/mL, 6 h, 10 °C, autosampler stability, added: NHC 1000 ng/mL | – | remaining compound | 100.8 ± 0.7% |
| CCCCCCCCCCCC(=O)NCCCC[C@H](NC(=O)[C@@H](NC(=O)[C@@H](NC(=O)[C@H](C)NC(=O)[C@H](C)NC(=O)[C@H](CCCCN)NC(=O)[C@H](CCCCN)NC(=O)[C@H](CS)NC(=O)[C@H](CCCCN)NC(=O)[C@@H]1CCCN1C(=O)[C@H](CC(C)C)NC(=O)[C@@H](NC(=O)[C@H](Cc1c[nH]c2ccccc12)NC(=O)[C@H](CC(C)C)NC(=O)[C@@H](N)CCCCN)C(C)C)C(C)C)C(C)C)C(N)=O | LC-MS/MS | rat whole blood | 250 ng/mL, 0 to 180 min, 37 °C | – | recovery | 15% |
| CC(C)C(=O)c1cn(CC(=O)COc2ccc(Oc3ccccc3)cc2)c2ccc(C(=O)O)cc12 | – | porcine liver S9 fraction | 20 µM, 30 min, added: BNPP 1 mM | – | inhibition of carbonyl reduction | ~45% |
| O=S(=O)([O-])[O-].[O]=[V+2] | refers to: total vanadium | human, serum | oral, 25 mg V/day as VOSO4, 6 weeks | – | steady-state concentration | 16.9 ng/mL and 13.9 ng/mL |
| CC(=O)N[C@H](CCCCNC(=O)C(C)F)C(=O)N[C@@H](CS)C(=O)N[C@@H](CS)C(=O)N[C@@H](CCC(=O)O)C(=O)N[C@@H](Cc1c[nH]cn1)C(=O)N[C@H](Cc1ccccc1)C(=O)N[C@@H](CCCNC(=N)N)C(=O)N[C@@H](Cc1c[nH]c2ccccc12)C(=O)N[C@@H](CS)C(=O)N[C@@H](CCCNC(=N)N)C(=O)N1CCC[C@H]1C(=O)N[C@H](C(N)=O)C(C)C (some centres unmarked) [fluorine-18 labelled] | – | C57BL/6 mice, male, B16-F10 tumour, stomach | intravenous, 2 h | – | tissue uptake | 0.47 ± 0.24 %ID/g |
| CSCC[C@@H]1NC(=O)[C@H](CC(=O)O)NC(=O)CNC(=O)[C@H](CCCNC(=N)N)NC(=O)[C@H](C)NC(=O)[C@H](CCC(=O)O)NC(=O)[C@H](CCCNC(=N)N)NC(=O)[C@@H]2CSSC[C@@H]3NC(=O)[C@H](CO)NC(=O)[C@H]([C@@H](C)O)NC(=O)[C@@H]4CCCN4C(=O)[C@H](C)NC(=O)[C@H](Cc4c[nH]c5ccccc45)NC(=O)[C@H](CC(=O)O)NC(=O)CNC(=O)[C@H](CCCNC(=N)N)NC(=O)CNC(=O)[C@H](CCC(N)=O)NC(=O)[C@@H]4CCCN4C(=O)[C@@H](NC(=O)CNC(=O)C(C)F)CSSC[C@H](NC(=O)CNC(=O)[C@H](C)NC(=O)[C@H](CC(C)C)NC(=O)[C@H](CSSC[C@@H](C(=O)NCC(N)=O)NC(=O)[C@H]([C@@H](C)O)NC(=O)[C@H](CCCNC(=N)N)NC(=O)[C@@H]4CCCN4C1=O)NC(=O)[C@H](CC(=O)O)NC(=O)[C@H](CO)NC(=O)[C@H](CC(=O)O)NC(=O)[C@H](CCC(N)=O)NC(=O)[C@H](CO)NC3=O)C(=O)N[C@@H](C(C)C)C(=O)N2 (some centres unmarked) [fluorine-18 labelled] | – | nude mouse, U-87 MG xenograft, muscle | intravenous, 2.5 h, added: cyclo(RGDyK) co-injected | – | tissue uptake | 0.16 ± 0.06 %ID/g |
| CC(=O)N[C@@H](CCCNC(=N)N)C(=O)N[C@H](C(=O)N[C@@H](CCCNC(=N)N)C(=O)N[C@@H](CCCNC(=N)N)C(=O)N[C@@H](CSSC(C)(C)C)C(=O)N[C@@H](CCCCNC(=O)c1ccc(F)cc1)C(=O)Nc1ccc2nc(C#N)sc2c1)C(C)C | – | mouse, blood | intravenous, 20 µmol/kg | – | Cmax | 49.8 µM |
| O=c1[nH]c(Cc2ccccn2)nc2c1cnn2C1CCOCC1 | – | healthy men, extensive metabolizers, plasma | oral, 200 mg single dose, tablet, median | – | Tmax | 37.8 min |
| CC(C)[C@H](NC(=O)[C@@H]1CCCN1C(=O)[C@H](CCCNC(=N)N)NC(=O)[C@H](CO)NC(=O)[C@H](CCCCN)NC(=O)[C@H](C)NC(=O)[C@H](Cc1c[nH]cn1)NC(=O)CNC(=O)[C@H](CCCNC(=N)N)NC(=O)[C@H](CCCCN)NC(=O)[C@@H](NC(=O)[C@H](CO)NC(=O)[C@H](Cc1c[nH]cn1)NC(=O)[C@@H](NC(=O)CNC(=O)[C@H](CCC(=O)O)NC(=O)[C@H](Cc1c[nH]cn1)NC(=O)[C@H](CC(=O)O)NC(=O)[C@H](C)NC(=O)[C@H](CCC(=O)O)NC(=O)[C@H](CO)NC(=O)CNC(=O)[C@H](C)NC(=O)[C@H](CCC(=O)O)NC(=O)[C@@H](N)CC(=O)O)[C@@H](C)O)[C@@H](C)O)C(=O)O | LC-MS/MS | human serum | concentration not given, 4 h, room temperature, tube without gel separator | baseline: initial concentration | change in serum concentration | -19 ± 12% |
| Cc1sc2c(c1C)C(c1ccc(Cl)cc1)=N[C@@H](CC(=O)OC(C)(C)C)c1nnc(C)n1-2 | LC-MS | Ringer's solution with 10% β-cyclodextrin | 50 ng/mL, time not given, glass vessel, plastic vial | – | recovery vs nominal | 86.2% and 86.4% |
| Oc1ccc2cc3ccc4cccc5ccc(c2c1)c3c45 | UPLC-AMS | human, plasma | oral, 100 ng of [14C]-BaP | – | AUC | 21.9 ± 17.9 fg BaP equivalents·h/mL |

| Molecule | assay | test system | setting | how to read | measurement | result |
| --- | --- | --- | --- | --- | --- | --- |
| CCC1(c2ccccc2)NC(=O)N(Cc2ccccc2)C1=O (single isomer, unassigned; (+)) | inhibitor, refers to: 11-hydroxy-THC | human liver microsomes, six donors | 5 µM, added: THC 2 µM, tienilic acid, CYP3cide | – | inhibition | ≤ 17% |
| CC1N=C(c2ccccc2F)c2cc(Nc3ccc(S(C)(=O)=O)cc3)ccc2NC1=O (centres unmarked) | shake flask | PBS | 24 h, pH 7.4 | – | solubility | 34 µM |
| NC(=O)c1nc(F)c[nH]c1=O | UV-Vis spectrophotometry | supercritical CO2 | 120 min, 318 K, 18 MPa, 790.18 kg/m^3 | – | solubility | 367 µg/mL |
| O=c1c(O[C@@H]2O[C@H](CO)[C@@H](O)[C@H](O)[C@H]2O)c(-c2ccc(O)c(O)c2)oc2cc(O)cc(O)c12 | – | rat, liver | intravenous, 10 mg/kg, 7 days | baseline: control | PXR protein level increase | 79.8% |
| CN1CC[C@H](c2c(O)cc(O)c3c(=O)cc(-c4ccccc4Cl)oc23)[C@H](O)C1 | – | zebrafish embryos | immersion, 72 h | – | maximum tolerated concentration | 2 µM |
| CCCCCOc1ccc(-c2ccc(-c3ccc(C(=O)N[C@H]4C[C@@H](O)[C@@H](O)NC(=O)[C@@H]5[C@@H](O)[C@@H](C)CN5C(=O)[C@H]([C@@H](C)O)NC(=O)[C@H]([C@H](O)[C@@H](O)c5ccc(O)cc5)NC(=O)[C@@H]5C[C@@H](O)CN5C(=O)[C@H]([C@@H](C)O)NC4=O)cc3)cc2)cc1 | – | human neonates, plasma | intravenous, 1.5 mg/kg/day after 3 mg/kg loading, 0-24 h | – | AUC steady state | 74900 ng·h/mL |
| intermedine | LC-MS/MS depletion | human whole blood | 1000 ng/mL, 60 min, 37 °C | – | blood-to-plasma ratio | 1.12 |
| C[C@H](Cn1cnc2c(N)ncnc21)OCP(=O)(O)O | LC-MS/MS | rhesus monkeys, both sexes, brain, four regions combined | dose not given, 1 day after last dose, ten days dosing | – | median brain concentration | 65 ng/g |
| CCCCCCCCCCCC[N+](C)(C)Cc1ccccc1 | in vitro-in vivo extrapolation | human | – | – | hepatic clearance | 1.69 mL/h/g liver |
| Cc1cnc(C(=O)N[C@H]2CCCCC/C=C\[C@@H]3C[C@@]3(C(=O)NS(=O)(=O)C3CC3)NC(=O)[C@@H]3C[C@@H](Oc4nc5ccccc5c5ccccc45)CN3C2=O)cn1 | – | healthy volunteers | oral, dose not given, with digoxin | – | AUCtau | 6320 ng·h/mL |
| CN[C@@](C)(C[18F])C(=O)O | – | SCID mouse A549 xenograft, brain | 15 min, post injection | – | tissue uptake | 0.4 ± 0.1 %ID/g |
| O=S(=O)(O)Oc1ccc(-c2cccc(Cl)c2)cc1Cl | – | rat Sprague-Dawley male, brain | intravenous, 575 µg/kg, 1 h, total dose 142 µg | – | fraction of dose in brain | 0.7% |
| CC[C@H](C)[C@H](NC(=O)[C@@H](N)CCCNC(=N)N)C(=O)N[C@H](C(=O)N1CCC[C@H]1C(=O)N[C@@H](C)C(N)=O)C(C)C | – | healthy volunteers, plasma | intravenous, 3.0 mg/kg daily, day 7, multiple ascending dose | – | mean residence time | 3.6 ± 0.6 min |
| CCCCCOc1ccc(-c2cc(-c3ccc(C(=O)N[C@H]4C[C@@H](O)[C@@H](O)NC(=O)[C@@H]5[C@@H](O)[C@@H](C)CN5C(=O)[C@H]([C@H](O)CC(N)=O)NC(=O)[C@H]([C@H](O)[C@@H](O)c5ccc(O)c(OS(=O)(=O)O)c5)NC(=O)[C@@H]5C[C@@H](O)CN5C(=O)[C@H]([C@@H](C)O)NC4=O)cc3)no2)cc1 | – | human paediatric patients 6 to sample C years, plasma | intravenous, 3 mg/kg once daily, day 7, mean | – | AUC(0-tau) | 248000 ng·h/mL |
| CC(C)C[C@H](NC(=O)[C@H](CCC(=O)O)NC(=O)[C@H](CCC(=O)O)NC(=O)[C@H](CC(=O)O)NC(=O)[C@H](CCC(=O)O)NC(=O)[C@H](CCC(=O)O)NC(=O)[C@H](CCC(=O)O)NC(=O)[C@@H](N)CC(=O)O)C(=O)O | – | rat, CSF | intravenous, 11.0 mg/kg, 60 min | – | concentration | 19.2 ng/mL |
| CC[C@@]1(O)C(=O)OCc2c1cc1n(c2=O)Cc2cc3c(CN(C)C)c(O)ccc3nc2-1 | – | human patients, plasma | oral, 8 mg weekly, geometric mean, added: pazopanib 800 mg daily | – | AUC(0-inf) | 254 ng·h/mL |

Repeated from above:
| Molecule | assay | test system | setting | how to read | measurement | result |
| --- | --- | --- | --- | --- | --- | --- |
| CC(=O)N[C@@H](CCCNC(=N)N)C(=O)N[C@H](C(=O)N[C@@H](CCCNC(=N)N)C(=O)N[C@@H](CCCNC(=N)N)C(=O)N[C@@H](CSSC(C)(C)C)C(=O)N[C@@H](CCCCNC(=O)c1ccc(F)cc1)C(=O)Nc1ccc2nc(C#N)sc2c1)C(C)C | – | mouse, blood | intravenous, 20 µmol/kg | – | Cmax | 49.8 µM |
| O=c1[nH]c(Cc2ccccn2)nc2c1cnn2C1CCOCC1 | – | healthy men, extensive metabolizers, plasma | oral, 200 mg single dose, tablet, median | – | Tmax | 37.8 min |
| CC(C)[C@H](NC(=O)[C@@H]1CCCN1C(=O)[C@H](CCCNC(=N)N)NC(=O)[C@H](CO)NC(=O)[C@H](CCCCN)NC(=O)[C@H](C)NC(=O)[C@H](Cc1c[nH]cn1)NC(=O)CNC(=O)[C@H](CCCNC(=N)N)NC(=O)[C@H](CCCCN)NC(=O)[C@@H](NC(=O)[C@H](CO)NC(=O)[C@H](Cc1c[nH]cn1)NC(=O)[C@@H](NC(=O)CNC(=O)[C@H](CCC(=O)O)NC(=O)[C@H](Cc1c[nH]cn1)NC(=O)[C@H](CC(=O)O)NC(=O)[C@H](C)NC(=O)[C@H](CCC(=O)O)NC(=O)[C@H](CO)NC(=O)CNC(=O)[C@H](C)NC(=O)[C@H](CCC(=O)O)NC(=O)[C@@H](N)CC(=O)O)[C@@H](C)O)[C@@H](C)O)C(=O)O | LC-MS/MS | human serum | concentration not given, 4 h, room temperature, tube without gel separator | baseline: initial concentration | change in serum concentration | -19 ± 12% |
| Cc1sc2c(c1C)C(c1ccc(Cl)cc1)=N[C@@H](CC(=O)OC(C)(C)C)c1nnc(C)n1-2 | LC-MS | Ringer's solution with 10% β-cyclodextrin | 50 ng/mL, time not given, glass vessel, plastic vial | – | recovery vs nominal | 86.2% and 86.4% |
| Oc1ccc2cc3ccc4cccc5ccc(c2c1)c3c45 | UPLC-AMS | human, plasma | oral, 100 ng of [14C]-BaP | – | AUC | 21.9 ± 17.9 fg BaP equivalents·h/mL |
